Experimental data from different studies.
Each line is one published result; not all experiments were run side by side. ± marks the error that the study gave.
Organism: Trypanosoma brucei

SMILES | assay | test system | setting | scale | quantity | result
CNC(=O)c1nn(C)c2c1C(C)(C)Cc1cnc(Nc3ccc(N4CCN(C)CC4)cc3)nc1-2 | cell growth | – | – | – | EC50 | 27 ± 4.3 nM
CN(C)CCNC(=O)c1cccn2c(=O)c3cc4ccccc4cc3nc12 | RNA-seq | Lister 427 bloodstream form | 2 × EC50, 4 h, log2 FC 1, FDR 0.05 | baseline: untreated | differentially expressed genes | 289 genes
COc1ccc(Nc2cnnc3cc(-c4ccc(N5CCN(C)CC5)cc4)ccc23)nc1 | cell growth | – | – | – | EC50 | 690 ± 360 nM
Cc1cnc(CNC(=O)c2c(=O)c3ccc(N4CCCN(C)CC4)nc3n3c2sc2ccccc23)cn1 | RNA-seq | Lister 427 bloodstream form | 2 x EC50, 4 h, log2 FC ±1, FDR 0.05 | baseline: untreated | differentially expressed genes | 357 genes
COc1cc(NC(=O)c2ccc(Br)cc2)ccc1S(N)(=O)=O | cell viability, MTS | Lister 427 | 48 h | – | IC50 | < 5000 nM
O=C(NC1CCNCC1)c1[nH]ncc1NC(=O)c1c(Cl)cccc1Cl | cell growth | – | – | – | EC50 | 314 ± 36 nM
COc1cc(NC(=O)c2cccc(C(F)(F)F)c2)ccc1S(N)(=O)=O | cell viability, MTS | Lister 427 | 48 h | – | IC50 | > 20000 nM
Cc1ccc(Nc2cnnc3ccc(-c4ccc(N5CCN(C)CC5)cc4)cc23)cn1 | cell growth | – | – | – | EC50 | 1000 ± 340 nM
C[n+]1cc(NC(=O)c2ccc3ccc4ccc(C(=O)Nc5cc6ccccc6[n+](C)c5)nc4c3n2)cc2ccccc21 | RNA-seq | Lister 427 bloodstream form | 2 × EC50, 4 h, ChIP-seq G4 peak overlap | – | differentially expressed G4-containing genes | 18 genes
CN1CCCN(c2ncc(-c3ccc4nncc(Nc5cnccn5)c4c3)cn2)CC1 | cell growth | – | – | – | EC50 | 4500 ± 640 nM
Cc1ccc(C(=O)Nc2ccc(S(=O)(=O)O)c3cc(S(=O)(=O)O)cc(S(=O)(=O)O)c23)cc1NC(=O)c1cccc(NC(=O)Nc2cccc(C(=O)Nc3cc(C(=O)Nc4ccc(S(=O)(=O)O)c5cc(S(=O)(=O)O)cc(S(=O)(=O)O)c45)ccc3C)c2)c1 | parasite growth | Squib 427 | – | – | EC50 | 50 nM
Cc1ccc2c(c1)C(=NNc1ccc(S(N)(=O)=O)cc1)C(=O)N2 | – | – | unit not given | baseline: pEC50 T. brucei minus pTC50 HepG2 | selectivity | 1.3
CN1CCN(c2ccc(-c3ccc4nncc(Nc5ncccn5)c4c3)cc2)CC1 | cell growth | – | – | – | EC50 | 740 ± 430 nM
COc1cc(NC(=O)c2cc(C(F)(F)F)cc(C(F)(F)F)c2)ccc1S(N)(=O)=O | cell viability, MTS | Lister 427 | 48 h | – | IC50 | > 20000 nM
C[C@]1(O)C[C@@H](c2nc(-c3ccc4ccc(-c5ccccc5)nc4c3)c3c(N)nccn32)C1 | cell growth | – | – | – | EC50 | > 3000 nM
Cc1ccc(C(F)(F)F)c(COc2cc(NC(=O)c3cccc(C(=N)N)c3)ccc2N(C)S(=O)(=O)C(F)(F)F)c1 | MTS | Lister 427 bloodstream form | – | – | growth-inhibitory concentration | 200 nM
CN1CCN(c2ncc(-c3ccc4nncc(Nc5ncccn5)c4c3)cn2)CC1 | cell growth | – | – | – | EC50 | 2800 ± 100 nM
CCn1cc(-c2ccnc3[nH]ccc23)c(-c2cccc(NC(=O)Nc3ccc(OCc4ccccc4)cc3)c2)n1 | – | – | unit not given | baseline: pEC50 T. brucei minus pTC50 HepG2 | selectivity | 1.5
Cc1ccc(Nc2cnnc3cc(-c4cnc(N5CCCN(C)CC5)nc4)ccc23)cn1 | cell growth | – | – | – | EC50 | 9000 ± 3200 nM
COc1ccc2ncn(-c3cc(O[C@H](C)c4ccccc4C(F)(F)F)c(C(N)=O)s3)c2c1 | – | – | unit not given | baseline: pEC50 T. brucei minus pTC50 HepG2 | selectivity | 1.9
COc1ccc(Nc2cnnc3cc(-c4cnc(N5CCN(C)CC5)nc4)ccc23)cc1Cl | cell growth | – | – | – | EC50 | 3000 ± 380 nM
NS(=O)(=O)c1ccc(NC=C2C(=O)Nc3ccc4ncsc4c32)cc1 | – | – | unit not given | baseline: pEC50 T. brucei minus pTC50 HepG2 | selectivity | > 0.9

Excerpt of the above:
SMILES | assay | test system | setting | scale | quantity | result
O=C(NC1CCNCC1)c1[nH]ncc1NC(=O)c1c(Cl)cccc1Cl | cell growth | – | – | – | EC50 | 314 ± 36 nM
COc1cc(NC(=O)c2cccc(C(F)(F)F)c2)ccc1S(N)(=O)=O | cell viability, MTS | Lister 427 | 48 h | – | IC50 | > 20000 nM
Cc1ccc(Nc2cnnc3ccc(-c4ccc(N5CCN(C)CC5)cc4)cc23)cn1 | cell growth | – | – | – | EC50 | 1000 ± 340 nM
